# Measured values pooled from the literature.
# Each line is one published result; not all experiments were run side by side. Numbers after ± are the reported error.
Compound,organism,assay,test system,setting,how to read,measurement,result
CC(C)C[C@H](NC(=O)OCc1ccccc1)C(=O)N[C@H](C=O)C[C@H]1CCNC1=O,Enterovirus D68,viral replication,WI-38,37 °C,,EC50,380 ± 250 nM
O=C(Nc1ccc2c(c1)CN(c1ccc(Br)cc1)C2=O)N1CCN(c2ccc(F)cc2)CC1,Trypanosoma brucei brucei,"cell growth, resazurin",Squib 427,3 days,,IC50,400 nM
COc1cc(OC)c2c(c1)C(=O)c1cc3oc(=O)cc(C)c3c(O)c1C2=O,Bacillus cereus,,MTCC 1306,100 µg/disc,,zone of inhibition,< 8 mm
CC(=O)N[C@@H]1[C@@H](OC(C)=O)[C@H](OC(C)=O)[C@@H](COC(C)=O)O[C@H]1[Se]C(=O)c1ccc([N+](=O)[O-])cc1,Trypanosoma brucei brucei,,bloodstream form,"5 µM, 24 h, 1 % DMSO",,viability,86.1 ± 4.7%
COc1ccc(NC(=O)N2CCCN3CCC(c4ccc(C#CC5CCCCC5)cc4)C3C2)cc1 (stereo not shown),Toxoplasma gondii,parasite growth,"HFF, RH type I luciferase",,,EC90,0.71 ± 0.22 µM
Oc1c(Br)cc(Br)c2nc3c(C(F)(F)F)cc(C(F)(F)F)cc3nc12,Staphylococcus aureus,microbial killing,129,clinical isolate,,MBC,0.59 µM
CC(=O)[O-].O.O.O.O.[Co+2].[O-]c1ccc(Br)cc1C=NCCN1CCOCC1,Bacillus cereus,,,20 µL of 100 µM per disc,,inhibition zone diameter,15 mm
COc1ccc(NC(=O)N2CCCN3CCC(c4ccc(C#Cc5ccncc5)cc4)C3C2)cc1 (stereo not shown),Toxoplasma gondii,parasite growth,"HFF, RH type I luciferase",,,EC90,9.69 µM
COC(=O)/C=C/c1ccc(OCCNS(=O)(=O)c2ccc(NC(C)=O)cc2)c(OC)c1,tobacco mosaic virus,half-leaf method,tobacco,500 µg/mL,,inactivation activity,87.3 ± 2.5%
N#Cc1nc(N2CCOCC2)nc(N(Cc2ccc(F)cc2)CC2CCCOC2)n1 (stereo not shown),Toxoplasma gondii,qPCR plaque,"HFF host cells, bradyzoite cysts","5 µM, 7 days daily",relative to: DMSO,reduction of cyst viability,~80%
COC(=O)C(CS[Se][C@@H]1O[C@H](COC(C)=O)[C@@H](OC(C)=O)[C@H](OC(C)=O)[C@H]1NC(C)=O)NC(=O)OC(C)(C)C (stereo partly shown),Trypanosoma brucei brucei,,bloodstream form,"5 µM, 24 h, 1 % DMSO",,viability,120 ± 6.4%
COc1ccc(C(=O)N2c3ccc(F)cc3[C@@H](Nc3ccccc3)C[C@H]2C)cc1,Aedes albopictus,,,"1 µM, second-instar larvae",,logit mortality,-0.16
O=S(=O)(c1ccccc1)N(CCc1nnc(S)o1)c1ccc(Cl)cc1,Colletotrichum capsici,cup plate method,,100 µg/mL,relative to: fluconazole,relative inhibition,127%
O=c1c(-c2nc3ccccc3s2)cc2c(n1NS(=O)(=O)c1ccc(Cl)cc1)CCCCCC2,Coxsackievirus B4,"viral replication, plaque reduction",BGM cells,,relative to: CC50 over IC50,selectivity index,3.23
CC(C)C[C@H](NC(=O)OCc1cccc(Cl)c1)C(=O)N[C@@H](C[C@H]1CCNC1=O)C(=O)C(=O)NC1CC1,human rhinovirus 51,viral replication,WI-38,37 °C,,EC50,150 ± 80 nM
CCc1ccc(C(=O)N2c3ccc(F)cc3[C@@H](Nc3ccccc3)C[C@H]2C)cc1,Aedes albopictus,,,"1 µM, second-instar larvae",,logit mortality,1.03
Fc1ccc(Cn2c3ccccc3c3ccncc32)cc1,Echinococcus granulosus,eosin staining,sensu stricto protoscoleces,"40 µM, 48 h, 10% fetal bovine serum",,viability,93.1 ± 1.01%
CCCCCCCCCC1CC2CCC3CC(CCCCCCCCC)NC(=N1)N23 (stereo not shown),Candida krusei,fungal growth,ATCC 6258,,,MFC,2.99 µM
C#CCN1CCc2c3n(c4ccccc24)C(=O)C(=C)CC3(C(=O)OC)C1 (stereo not shown),hepatitis B virus,HBsAg secretion,HepAD38,,relative to: CC50 over IC50,selectivity index,6.68
O=C(Nc1ccccc1)N1CCCN2CCC(c3ccc(C#Cc4cncnc4)cc3)C2C1 (stereo not shown),Toxoplasma gondii,,"HFF, RH (type I)",concentration not given,,growth inhibition,inactive
C#CCN1CCc2c(n(C(=C)C(=O)OC)c3ccccc23)C(C(=O)OC)C1 (stereo not shown),hepatitis B virus,rcDNA level,HuH7-NTCP,5 µM,,inhibition,> 60%
CCCCCCCCC1=C(CCCCCCCC(=O)OC)C1,Toxoplasma gondii,,"Vero, RH",,relative to: CC50 over EC50,selectivity index,> 3.3
Cc1nccc2c3ccccc3n(Cc3cccnc3)c12,Echinococcus granulosus,eosin staining,sensu stricto protoscoleces,"40 µM, 48 h, 10% fetal bovine serum",,viability,59 ± 2.86%
CC(=O)N[C@H](CCCCN)C(=O)N[C@H](CC(C)C)C(=O)N[C@H](CCCCN)C(=O)N[C@H](CO)C(=O)N[C@H](CC(C)C)C(=O)N[C@H](CC(C)C)C(=O)N[C@H](CCCCN)C(=O)N[C@@H](C(=O)N[C@H](CC(C)C)C(=O)N[C@H](CO)C(=O)N[C@H](CCCCN)C(=O)N[C@H](C)C(=O)N[C@H](CCCCN)C(=O)N[C@H](CCCCN)C(=O)N[C@H](CCCCN)C(=O)N[C@H](CCCCN)C(=O)N[C@H](CC(C)C)C(=O)N[C@H](CCCCN)C(=O)N[C@@H](C(=O)N[C@H](CC(C)C)C(=O)N[C@H](CC(C)C)C(=O)N[C@H](CCCCN)C(=O)N[C@H](C)C(=O)N[C@H](CC(C)C)C(=O)N[C@H](CO)C(=O)N[C@H](CCCCN)C(N)=O)[C@H](C)O)[C@H](C)O,Acinetobacter baumannii,,11 isolates,"24 h, 37 °C",,MIC geometric mean,0.4 µM
Cc1ccc(NC(=O)N2CCCN3CCC(c4ccc(C#CC5CCC(F)(F)CC5)cc4)C3C2)cc1 (stereo not shown),Toxoplasma gondii,parasite growth,"HFF, RH type I luciferase",,,EC90,3.89 ± 0.32 µM
O=C(N[C@@H](CC1CCCCC1)C(=O)N[C@@H](C[C@H]1CCNC1=O)C(=O)C(=O)NC1CC1)OCc1cccc(Cl)c1,human rhinovirus 1B,viral replication,WI-38,,,EC90,0.45 µM
Cc1ncccc1-c1ccc(C(=O)N2CC[C@H](C(=O)Nc3cc(F)c(F)c(F)c3)C2)[nH]1,hepatitis B virus,item: intracellular HBV DNA,HepG2.2.15,"0.1 µM, 144 h",relative to: vehicle,HBV DNA remaining,76%
O=C(Nc1ccc(F)cc1F)N1CCCN2CCC(c3ccc(C#Cc4ccccc4)cc3)C2C1 (stereo not shown),Toxoplasma gondii,parasite growth,"HFF, RH type I luciferase",,,EC90,5.42 µM
Cc1ncncc1-c1ccc(C(=O)N2CC[C@H](C(=O)Nc3cc(F)c(F)c(F)c3)C2)[nH]1,hepatitis B virus,item: intracellular HBV DNA,HepG2.2.15,"1 µM, 144 h",relative to: vehicle,HBV DNA remaining,39%
O=C[C@H](C[C@H]1CCNC1=O)NC(=O)[C@H](CC1CCCCC1)NC(=O)OCc1ccccc1,Enterovirus D68,viral replication,WI-38,37 °C,,EC50,60 ± 10 nM
N=C(NO)NN=Cc1nccc2c([N+](=O)[O-])cccc12,human mastadenovirus C,plaque reduction,"A549, McEwen",,relative to: TC50 over IC50,selectivity index,6.3
O=C(CCNC(=O)c1ccsc1)Nc1cccc(Oc2ccc(Cl)cc2)c1,hepatitis B virus,"sucrose density gradient, item: HBsAg","HepG2.2.15.7, culture supernatant",,,density of subviral particle peak,1.14 to 1.16 g/mL
Cc1c2c(cc3oc(=O)cc(-c4ccc(Cl)cc4)c13)C(=O)c1cccc(O)c1C2=O,Bacillus cereus,,MTCC 1306,100 µg/disc,,zone of inhibition,8 mm
Cc1ccc(N(CCc2nnc(S)o2)S(=O)(=O)c2ccccc2)cc1,Colletotrichum capsici,cup plate method,,100 µg/mL,relative to: fluconazole,relative inhibition,127%
CCOC(=O)/C=C/c1ccc(OCCNS(=O)(=O)c2ccc(C)cc2)c(OC)c1,tobacco mosaic virus,"inactivation activity, half-leaf method",,,,EC50,206 ± 2.3 µg/mL
CC(C)C[C@H](NC(=O)OCc1ccccc1)C(=O)N[C@@H](C[C@H]1CCNC1=O)C(=O)C(=O)NC1CC1,human rhinovirus 1B,viral replication,WI-38,37 °C,,EC50,250 ± 210 nM
Cc1ccc(NC(=O)N2CCCN3CCC(c4ccc(C#CC5=CCCC5)cc4)C3C2)cc1 (stereo not shown),Toxoplasma gondii,parasite growth,"HFF, RH type I luciferase",,,EC90,3.09 ± 0.19 µM
Cc1cc(O)cc2c1C(=O)c1c(cc3oc(=O)cc(-c4ccccc4)c3c1O)C2=O,Bacillus cereus,,MTCC 1306,100 µg/disc,,inhibition zone diameter,8 mm
C[C@@H]1C[C@H](Nc2ccccc2)c2cc(F)ccc2N1C(=O)c1ccc(C#N)cc1,Aedes albopictus,,,"1 µM, second-instar larvae",,logit mortality,0.47
COc1ncccc1C(=O)Nc1ccccc1Nc1ccccc1,Sclerotinia sclerotiorum,microbial growth,,50 µg/mL,,inhibition,0%
CCCCCCCCCC1CC2CCCC3CC(CCCCCCCCC)NC(=N1)N23 (stereo not shown),Candida krusei,fungal growth,ATCC 6258,,,MFC,2.9 µM
C[C@@H]1C(=O)O[C@@H](C)/C=C/C=C\[C@@H](C)[C@@H]2C=C[C@@H]3C[C@@]4(C)O[C@H]4[C@@H](C)[C@H]3[C@@H]2C(=O)C(Cl)(Cl)C1=O,Staphylococcus aureus,,MSSA and MRSA clinical isolates,,,MIC90,0.1 µg/mL
CNC1=C([N+](=O)[O-])C2(C(=O)Nc3ccccc32)C2=C(CCCC2=O)O1 (stereo not shown),Salmonella enterica,microbial growth,TYPHIMURIUM,"250 µg/mL, 24 h",,inhibition,73.7%
CC(C)C[C@H](NC(=O)CNC(=O)c1cc(Cl)ccc1Cl)B(O)O,Babesia divergens,,erythrocyte culture,"200 nM, 48 h",,parasite replication,no effect
CN[C@H](CC(C)C)C(=O)N[C@H]1C(=O)N[C@@H](CC(N)=O)C(=O)N[C@H]2C(=O)N[C@H]3C(=O)N[C@H](C(=O)N[C@H](C(=O)O)c4cc(O)cc(O)c4-c4cc3ccc4O)[C@H](O)c3ccc(c(Cl)c3)Oc3cc2cc(c3O[C@@H]2O[C@H](CO)[C@@H](O)[C@H](O)[C@H]2O[C@H]2C[C@](C)(NCc3ccc(C(=O)OCCCCCCN(Cc4ccccn4)Cc4ccccn4)cc3)[C@H](O)[C@H](C)O2)Oc2ccc(cc2Cl)[C@H]1O,Bacillus subtilis,"protein synthesis, item: YtrB",168,"concentration not given, 10 min, at peak effective concentration",relative to: untreated,regulation factor,3.17 ± 0.4
COc1ccc(NC(=O)N2CCCN3CCC(c4ccc(C#CC5CCOCC5)cc4)C3C2)cc1 (stereo not shown),Toxoplasma gondii,parasite growth,"HFF, RH type I luciferase",,,EC90,3.07 ± 0.33 µM
C#CCN1CCc2c3n(c4ccccc24)C(=O)C(=C)C3(C(=O)OC)C1 (stereo not shown),hepatitis B virus,"cccDNA level, qPCR",HuH7-NTCP,5 µM,,inhibition,> 60%
Fc1ccc2c(c1)c1nc3ccc(Br)cc3c-1cn2Cc1cn(-c2ccccc2I)nn1,Giardia duodenalis trophozoites,"UHPLC-Q-TOF-MS, item: PI(O-18:0/0:0)",,"IC50, 0.2033 h",relative to: 0.25% DMSO,fold change,-73.9
Nc1ccn(C[C@@H](CO)OCP(=O)(O)OCCCS(=O)(=O)CCCCCCCCCCCCCC2CCC2)c(=O)n1,human betaherpesvirus 5,,standard isolates,,,EC90,< 0.0001 µM
C[C@@H]1C[C@H](Nc2ccccc2)c2cc(F)ccc2N1C(=O)c1ccc(Cl)cc1,Aedes albopictus,,,"1 µM, second-instar larvae",,logit mortality,0.32
Cc1ccc(NC(=O)N2CCCN3CCC(c4ccc(C#Cc5cccnc5)cc4)C3C2)cc1 (stereo not shown),Toxoplasma gondii,"parasite growth, luciferase","HFF, RH type I luciferase",,,EC90,1.26 µM
COc1ccc(-c2nc(-c3ccccc3OC)[nH]c2-c2ccc(OC)cc2)cc1,Schistosoma mansoni,,female worms,5 µM,,worm killing,0%
COC1C=COC2(C)Oc3c(C)c(O)c4c(c3C2=O)C2=NC3(CCN(CC(C)C)CC3)NC2=C(NC(=O)C(C)=CC=CC(C)C(O)C(C)C(O)C(C)C(OC(=O)Nc2cccnn2)C1C)C4=O (stereo not shown),Mycobacteroides abscessus,,"subsp. abscessus ATCC 19977, GM-CSF knockout mouse, acute infection, lung","oral, 25 mg/kg daily, 7 doses",relative to: start of treatment,lung CFU reduction,> 2 log CFU
C#CCN1CCC23C(=C(C(=O)OC)CC(C(=O)OC)C12)Nc1ccccc13 (stereo not shown),hepatitis B virus,HBsAg secretion,HepAD38,,relative to: CC50 over IC50,selectivity index,> 20.1
CCCCc1ccc(C(=O)N2c3ccc(F)cc3[C@@H](Nc3ccccc3)C[C@H]2C)cc1,Aedes albopictus,,,"1 µM, second-instar larvae",,logit mortality,-0.33

# Some of these lines once more:
Compound,organism,assay,test system,setting,how to read,measurement,result
O=C(Nc1ccccc1)N1CCCN2CCC(c3ccc(C#Cc4cncnc4)cc3)C2C1 (stereo not shown),Toxoplasma gondii,,"HFF, RH (type I)",concentration not given,,growth inhibition,inactive
Cc1ccc(NC(=O)N2CCCN3CCC(c4ccc(C#CC5CCC(F)(F)CC5)cc4)C3C2)cc1 (stereo not shown),Toxoplasma gondii,parasite growth,"HFF, RH type I luciferase",,,EC90,3.89 ± 0.32 µM
O=C[C@H](C[C@H]1CCNC1=O)NC(=O)[C@H](CC1CCCCC1)NC(=O)OCc1ccccc1,Enterovirus D68,viral replication,WI-38,37 °C,,EC50,60 ± 10 nM
CC(C)C[C@H](NC(=O)OCc1ccccc1)C(=O)N[C@@H](C[C@H]1CCNC1=O)C(=O)C(=O)NC1CC1,human rhinovirus 1B,viral replication,WI-38,37 °C,,EC50,250 ± 210 nM
Cc1ccc(N(CCc2nnc(S)o2)S(=O)(=O)c2ccccc2)cc1,Colletotrichum capsici,cup plate method,,100 µg/mL,relative to: fluconazole,relative inhibition,127%
COc1ncccc1C(=O)Nc1ccccc1Nc1ccccc1,Sclerotinia sclerotiorum,microbial growth,,50 µg/mL,,inhibition,0%
COC(=O)C(CS[Se][C@@H]1O[C@H](COC(C)=O)[C@@H](OC(C)=O)[C@H](OC(C)=O)[C@H]1NC(C)=O)NC(=O)OC(C)(C)C (stereo partly shown),Trypanosoma brucei brucei,,bloodstream form,"5 µM, 24 h, 1 % DMSO",,viability,120 ± 6.4%
COc1ccc(NC(=O)N2CCCN3CCC(c4ccc(C#CC5CCOCC5)cc4)C3C2)cc1 (stereo not shown),Toxoplasma gondii,parasite growth,"HFF, RH type I luciferase",,,EC90,3.07 ± 0.33 µM
N#Cc1nc(N2CCOCC2)nc(N(Cc2ccc(F)cc2)CC2CCCOC2)n1 (stereo not shown),Toxoplasma gondii,qPCR plaque,"HFF host cells, bradyzoite cysts","5 µM, 7 days daily",relative to: DMSO,reduction of cyst viability,~80%
